Measured values of several laboratories.
Compare with care: the assays were run in different laboratories. Several values in a cell are separate wells, animals, samples, runs or records.

SMILES = C#Cc1c(F)ccc2cc(O)cc(-c3ncc4c(N5CC6CCC(C5)N6C(=O)OC(C)OC(=O)C(C)(C)C)nc(OC[C@@]56CCCN5C[C@H](F)C6)nc4c3F)c12 (stereo partly shown); test system = simulated gastric fluid; conditions = 1 µM, 30 min, 37 °C; measurement = remaining prodrug; value = 88.3%
SMILES = C=CCN1CCC23c4c5ccc(OC(=O)c6ccc(NC(=O)OC(C)(C)C)cc6)c4OC2C(=O)CCC3(O)C1C5 (stereo not shown); test system = rat plasma; conditions = 1 h, together with: loperamide 100 µM; measurement = remaining compound; value = 54.3% and 54.8% and 63.4%
SMILES = CCN(CC)CCOc1ccc(-c2nnn(Cc3ccc(OC)cc3)c2N)cc1; test system = dog plasma; conditions = 120 min; measurement = remaining compound; value = 105%
SMILES = CC(C)[C@@H]1NC(=O)CNC(=O)[C@H](CC(N)=O)NC(=O)[C@H](CCCNC(=N)N)NC(=O)[C@H](Cc2ccc(O)cc2)NC(=O)[C@H](C(C)C)NC(=O)[C@@H](NC(=O)[C@@H](NC(=O)[C@H](CC(N)=O)NC(=O)[C@H](Cc2c[nH]c3ccccc23)NC(=O)[C@H](C)NC(=O)[C@H](Cc2ccccc2)NC(=O)CNC(=O)[C@H](CCCCN)NC(=O)[C@H](Cc2ccccc2)NC(=O)[C@H](Cc2ccccc2)NC(=O)[C@H](CCCCN)NC(=O)OCC2c3ccccc3-c3ccccc32)C(C)C)CSSC[C@@H](C(=O)N[C@@H](Cc2c[nH]cn2)C(=O)N[C@@H](CCCNC(=N)N)C(=O)N[C@@H](CCCNC(=N)N)C(=O)N[C@@H](C)C(=O)N[C@@H](CC(N)=O)C(N)=O)NC(=O)[C@H](C(C)C)NC(=O)[C@H](CCCNC(=N)N)NC1=O; assay = HPLC; test system = mouse mammary gland homogenate; conditions = 2560 µM, 20.00 h, 37 °C, 50 mg/mL tissue; measurement = remaining peptide; value = 55.1% and 53.8% and 49%
SMILES = CCCCCCCCCCCC(=O)C(C)C(=O)N1CCC[C@H]1C(=O)NC(C)(C)C(=O)NC(C)(C)C(=O)NC(C)(C)C(=O)N[C@](C)(CC)C(=O)NCCC(=O)N[C@@H](C)C(=O)N[C@](C)(CC)C(=O)N[C@@H](C)C(=O)N[C@@H](CC(C)C)C(=O)N[C@](C)(CC)C(=O)NCCC(=O)N[C@@H](C)C(=O)N[C@](C)(CC)C(=O)NCCC(=O)N[C@@H](C)C(=O)NC(C)(C)C(=O)NC(C)(C)C(=O)NC(C)(C)C(=O)N[C@@H](C)C(=O)N[C@@H](CC(=O)O)C(=O)O (stereo partly shown); assay = LC-MS; test system = buffer with trypsin; conditions = 40 µM, 720 min, pH 7.5, 37 °C; scale = baseline: 0 h; measurement = remaining intact peptide; value = 60.1% and 54.1%
SMILES = C#Cc1c(F)ccc2cc(O)cc(-c3ncc4c(N5CC6CCC(C5)N6C(=O)OC(OC(=O)CCC)C5CCC5)nc(OC[C@@]56CCCN5C[C@H](F)C6)nc4c3F)c12 (stereo partly shown); test system = simulated gastric fluid; conditions = 1 µM, 30 min, 37 °C; measurement = remaining prodrug; value = 91.1%
SMILES = C=CCN1CCC23c4c5ccc(OC(=O)c6ccc(N)cc6)c4OC2C(=O)CCC3(O)C1C5 (stereo not shown); test system = rat plasma; conditions = 0 h, no inhibitor; measurement = remaining compound; value = 102% and 92.8% and 105%
SMILES = CC[C@H](C)[C@H](NC(=O)[C@@H](NC(=O)[C@H](CCCCN)NC(=O)[C@@H](NC(=O)CNC(=O)[C@@H](N)CCCNC(=N)N)[C@@H](C)O)C(C)C)C(=O)N[C@@H](CC(C)C)C(=O)N[C@@H](Cc1c[nH]cn1)C(=O)N[C@@H](CC(C)C)C(N)=O; assay = LC-MS; test system = pronase digest; conditions = 200 µM, 10 min, pH 7.5, 37 °C, together with: pronase 2.5 µg/mL; measurement = remaining intact peptide; value = 24%
SMILES = C=CCN1CCC23c4c5ccc(OC(=O)c6ccccc6)c4OC2C(=O)CCC3(O)C1C5 (stereo not shown); test system = rat plasma; conditions = 0 h, together with: loperamide 100 µM; measurement = remaining compound; value = 100% and 104% and 95.7%
SMILES = Cc1nnc(-c2ccc(CC(=O)NCCCC[C@H](NC(=O)c3ccc(OCc4ccc(B(O)O)cc4)c(-c4nc5ccccc5c(=O)[nH]4)c3)C(=O)NCC(=O)NCC(=O)NCC(=O)N[C@@H](Cc3ccccc3)C(=O)N[C@@H](Cc3ccccc3)C(=O)O)cc2)nn1; assay = UPLC-MS/MS; test system = human serum; conditions = 100 µM, 3.5 h, 37 °C; measurement = remaining compound; value = 81.5% and 82.2%
